Measurements pooled from the literature.
Parts stem from different laboratories: compare values within a part only. Positions count from the first letter of the parent shown.

Study 1
Target: TAR DNA-binding protein 43, full length, His tag (TARDBP, Homo sapiens, UniProt Q13148, residues 1-414)
Method: RNA Bind-n-Seq
Form: RNA
Matrix: in vitro
Tested at: 20 nM
Notes: 6-mer, flanks averaged, single round
Together with: 150 mM LiCl
Baseline: input library
Reading: higher = stronger binding
| Oligonucleotide | 6-mer enrichment (R) |
| --- | --- |
| ACCGGG | 0.946 |
| GGAAAU | 0.942 |
| CCAUGU | 0.993 |
| CCCCGA | 1.06 |
| AUCGUG | 0.981 |
| GAAGAG | 1.06 |
| GUCUAU | 0.949 |
| AGUAGC | 0.944 |
| ACCUCG | 0.817 |
| UGCAGC | 0.963 |
| AGCCGU | 0.893 |
| AUACGG | 0.879 |
| GCCGCG | 1.01 |
| UUAGAC | 0.862 |
| GGCCCC | 1.2 |
| UGGGGC | 1.24 |
| GAAAGU | 0.947 |
| GAGUUU | 1.08 |
| GGCAAU | 0.929 |
| AGGCGA | 0.932 |

Study 2
Target: CEP164, C-terminal peptide (human)
Method: DHFR complementation, deep sequencing
Matrix: yeast
Notes: single substitutions, model-inferred values
Baseline: wild type
Reading: higher = weaker binding
Parent: PDZK1, PDZ domain 2 (human); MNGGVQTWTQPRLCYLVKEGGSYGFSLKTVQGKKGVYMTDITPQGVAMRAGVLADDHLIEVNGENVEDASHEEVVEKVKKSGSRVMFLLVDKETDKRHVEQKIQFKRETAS; partner HNRVKVYRF
| Substitution | binding free energy change [kcal/mol] |
| --- | --- |
| D68A | 0.0887 |
| G4L | 0.0829 |
| P43V | 0.49 |
| K18D | 1.13 |
| I59C | 0.543 |
| R97Q | -0.0105 |
| K18M | 0.372 |
| W8N | -0.0352 |
| V36Q | 0.76 |
| N2Y | -0.0104 |
| E76I | 0.337 |
| G45T | 1.4 |
| K96S | -0.0224 |
| Y37T | -0.211 |
| K92P | -0.0766 |
| F87K | 1.77 |

Study 3
Target: RNA binding protein fox-1 homolog 2, RRM domain, GST-SBP tag (RBFOX2, Homo sapiens, UniProt O43251-10, residues 100-194)
Method: RNA Bind-n-Seq
Form: RNA
Matrix: in vitro
Tested at: 365 nM
Notes: natural RNA segment, single round, ends assumed
Baseline: no-protein control
Reading: higher = stronger binding
Target sequence (chain): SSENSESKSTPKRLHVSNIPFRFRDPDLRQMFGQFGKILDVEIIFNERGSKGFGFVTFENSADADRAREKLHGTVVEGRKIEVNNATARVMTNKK
| Oligonucleotide | RBNS enrichment (R) |
| --- | --- |
| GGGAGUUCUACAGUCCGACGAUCCUGGCUCUCAAUGCCACCUUCGUUAGGAUUCAUGAAAUGAGUCCCUGUCCUUCCUGGUCAUGCUGGCCUCCGAGGCGCGGGCUGGGAUCUGUCAGGCUGCGUAUUUAUUAUGGAAUUCUCGGGUGCCAA | 0.335 |
| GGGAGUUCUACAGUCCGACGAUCACAGGAUGAGGUCUCGACCCUGUCCCCUAGGGACUGUCCUAGCCAGGUCUCCUGGGAAAGGGAGAUGUCAGGAUGUUGCUCCAUCCUUUGUCUUGGAACCACCAGUCUAGUGGAAUUCUCGGGUGCCAA | 0.375 |
| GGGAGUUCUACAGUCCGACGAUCCCCUCUUAUUUUUAACUUGGAUACCUGCUAUUCUGCCAAAAGACAAUUUCUAGAGUAGUUUUGAAUGGGUUGAUUUCCCCCACUCCCACAAACUCUGAAGCCAGUGUCUAUGGAAUUCUCGGGUGCCAA | 0.564 |
| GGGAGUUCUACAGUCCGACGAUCGCAAGCCCUACCUAAGGAACGGCUCUUGGAAGACUUCAUAAUGAUGCUGUCUCUGGCUGGGCCUUGGGGACACUUGCCACAUGGGUCCCAAAUGGCUGGGCAAGGGUGACUGGAAUUCUCGGGUGCCAA | 0.298 |
| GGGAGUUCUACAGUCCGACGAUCUACAUACUGUUCUAAUUUUGUAUUUUUUAAUUUUUGAAUUUGACAUUGAGUUUAAUUCAGCAACAACAAAAAAUACAUAUAAAACUAGAAAGGGACUUUUUUUCCUUUCUUGGAAUUCUCGGGUGCCAA | 0.519 |
| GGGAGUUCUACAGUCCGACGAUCCUGCAAGUGGACAAAGGAACAAGCCCCCAGAAAAGAAAGGGAAGAACUGCCUUCUUAUACUACAGAACAUGCAUUAGUGUGGGCUAUAUAGCUGUGGCUCAUGCUACCCAUGGAAUUCUCGGGUGCCAA | 0.635 |
| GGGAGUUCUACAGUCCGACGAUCUACCAUGCCAUCUGUGCCAGUGUGUGUCUGCCUCACCCUGUGCUUGACAUGUUCACCCAUCUUCUCUGCUUCCCGCCACCAUCCAGAUCCUCAGCGGCCGCCCCGGCUGUUGGAAUUCUCGGGUGCCAA | 0.222 |
| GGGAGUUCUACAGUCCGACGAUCUAAGCUACUGAUUUGGAUUUGUUUUAUCGUAUCCUAAAGUCUUUGUUGUUGAAAUGAAAGGUAUUUUGGGGUUAUUUAUUAUGAAAACAACAUGCUCUUAAUGUUGAUUUUGGAAUUCUCGGGUGCCAA | 0.344 |

Study 4
Target: CCNB3, cyclin fold, Cln2 fusion (human)
Method: yeast growth competition, sequencing
Matrix: yeast
Notes: weak parent motif
Baseline: not given
Reading: higher = stronger binding
Parent: MICAL3 docking peptide (human); LQLRRQLSFSEDS
| Substitution | normalised enrichment score |
| --- | --- |
| LQLRRQVSFSEDS [L7V] | 0.114 |
| LQLERQLSFSEDS [R4E] | -0.541 |
| LQLRWQLSFSEDS [R5W] | 0.184 |
| LQLRRQLSMSEDS [F9M] | 0.0363 |
| LQLSRQLSFSEDS [R4S] | 0.00109 |
| LQLRPQLSFSEDS [R5P] | 0.159 |
| LQLRRQLSFEEDS [S10E] | 0.252 |
| LQLRRQLLFSEDS [S8L] | 0.513 |
| LQLRRQLSFPEDS [S10P] | 0.257 |
| LCLRRQLSFSEDS [Q2C] | 0.206 |
| LQLWRQLSFSEDS [R4W] | 0.863 |
| LQLRRQLSFSEMS [D12M] | 0.32 |
| LILRRQLSFSEDS [Q2I] | 0.0274 |
| LQLRRQLSFDEDS [S10D] | 0.23 |
| LQLRRRLSFSEDS [Q6R] | 0.813 |
| LQLRRQLNFSEDS [S8N] | 0.0919 |
| LQLRLQLSFSEDS [R5L] | 0.000814 |

Study 5
Target: PABPC1L2, full length, GST fusion (mouse, UniProt A0ABA7IW68)
Method: RNAcompete
Form: RNA
Matrix: in vitro
Tested at: 20 nM
Notes: 7-mer, probes averaged, single round
Baseline: mean of 7-mers
Reading: higher = stronger binding
Construct (chain): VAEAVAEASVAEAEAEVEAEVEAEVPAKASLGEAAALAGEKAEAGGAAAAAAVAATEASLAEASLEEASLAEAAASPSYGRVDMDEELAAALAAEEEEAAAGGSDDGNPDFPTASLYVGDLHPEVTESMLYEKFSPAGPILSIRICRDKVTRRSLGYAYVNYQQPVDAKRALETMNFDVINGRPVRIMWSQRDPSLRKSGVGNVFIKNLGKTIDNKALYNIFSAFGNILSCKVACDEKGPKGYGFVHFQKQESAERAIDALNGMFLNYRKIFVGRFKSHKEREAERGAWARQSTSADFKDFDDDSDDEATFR
| Oligonucleotide | 7-mer Z-score |
| --- | --- |
| AAUGUCG | -0.0264 |
| GCUCUCU | -0.335 |
| GGACUCC | -0.229 |
| UCUAAGA | -0.153 |
| UUUGACG | -0.235 |
| AAACUUA | 1.13 |
| CACUAAC | -0.246 |
| UUCAGCA | -0.0663 |
| CGCUAGA | -0.0446 |
| AGACUUG | -0.146 |
| UCUCAUU | -0.409 |
| CAUUACC | -0.28 |
| UCUUUGG | -0.338 |
| UUGGCCA | -0.217 |
| ACUCUGU | -0.215 |
| AAUGAAA | 0.715 |
| CAUUCUU | -0.228 |

Study 6
Target: Histone acetyltransferase KAT6A, both winged helices, GST fusion (KAT6A, Homo sapiens, UniProt Q92794, residues 1-181)
Method: protein binding microarray
Form: double-stranded DNA, one strand shown
Matrix: in vitro
Tested at: not given
Notes: 8-mer, flanks averaged, mean of 2 arrays, mostly near background
Baseline: not given
Reading: higher = stronger binding
Construct (chain): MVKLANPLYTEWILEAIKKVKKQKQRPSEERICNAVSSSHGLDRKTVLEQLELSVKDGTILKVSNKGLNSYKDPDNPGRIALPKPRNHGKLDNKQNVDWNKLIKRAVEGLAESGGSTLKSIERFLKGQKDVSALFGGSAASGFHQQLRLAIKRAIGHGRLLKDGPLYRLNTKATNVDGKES
| Oligonucleotide | E-score |
| --- | --- |
| AGGCGGAG | 0.108 |
| GGGTATAA | -0.0118 |
| CGGCAGTC | 0.199 |
| ACGGTCGC | 0.188 |
| AAGTTCAA | -0.11 |
| ACTCGTCA | -0.0277 |
| AATAATAA | -0.0174 |
| ATAGACTG | -0.0447 |
| AGATGTTG | -0.0854 |
| CGGCCGCA | 0.364 |
| ACCTAGAA | -0.128 |
| CAAACAGA | -0.0703 |
| ACTAAATG | -0.117 |
| CAACGCGG | 0.257 |
| AATCTCCC | -0.0959 |
| AATACCGT | 0.171 |
| CTTCTAGC | -0.163 |
| ACGTATCC | -0.0583 |

Further values, each from its own experiment
| Substance | target | test | test system | conditions | how to read | quantity | result |
| --- | --- | --- | --- | --- | --- | --- | --- |
| PhoQ, residues 284 288 289 292 302 303 SSTLSG | PhoP, residues 12 14 15 18 19 TQAIL (Escherichia coli, UniProt P23836) | Sort-seq, item: YFP reporter | E. coli | PhoQ-PhoP variant library, together with: 10 µM Mg2+ | baseline: high Mg2+ state, higher = stronger signaling | fold induction | 13.7 |

Some of these lines once more (study 3):
| Oligonucleotide | RBNS enrichment (R) |
| --- | --- |
| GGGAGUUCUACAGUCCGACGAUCCUGGCUCUCAAUGCCACCUUCGUUAGGAUUCAUGAAAUGAGUCCCUGUCCUUCCUGGUCAUGCUGGCCUCCGAGGCGCGGGCUGGGAUCUGUCAGGCUGCGUAUUUAUUAUGGAAUUCUCGGGUGCCAA | 0.335 |
| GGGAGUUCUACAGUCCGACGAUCACAGGAUGAGGUCUCGACCCUGUCCCCUAGGGACUGUCCUAGCCAGGUCUCCUGGGAAAGGGAGAUGUCAGGAUGUUGCUCCAUCCUUUGUCUUGGAACCACCAGUCUAGUGGAAUUCUCGGGUGCCAA | 0.375 |
| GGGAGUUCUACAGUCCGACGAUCCCCUCUUAUUUUUAACUUGGAUACCUGCUAUUCUGCCAAAAGACAAUUUCUAGAGUAGUUUUGAAUGGGUUGAUUUCCCCCACUCCCACAAACUCUGAAGCCAGUGUCUAUGGAAUUCUCGGGUGCCAA | 0.564 |
| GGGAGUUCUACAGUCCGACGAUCGCAAGCCCUACCUAAGGAACGGCUCUUGGAAGACUUCAUAAUGAUGCUGUCUCUGGCUGGGCCUUGGGGACACUUGCCACAUGGGUCCCAAAUGGCUGGGCAAGGGUGACUGGAAUUCUCGGGUGCCAA | 0.298 |
| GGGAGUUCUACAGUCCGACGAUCUACAUACUGUUCUAAUUUUGUAUUUUUUAAUUUUUGAAUUUGACAUUGAGUUUAAUUCAGCAACAACAAAAAAUACAUAUAAAACUAGAAAGGGACUUUUUUUCCUUUCUUGGAAUUCUCGGGUGCCAA | 0.519 |
| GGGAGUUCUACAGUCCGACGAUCCUGCAAGUGGACAAAGGAACAAGCCCCCAGAAAAGAAAGGGAAGAACUGCCUUCUUAUACUACAGAACAUGCAUUAGUGUGGGCUAUAUAGCUGUGGCUCAUGCUACCCAUGGAAUUCUCGGGUGCCAA | 0.635 |
| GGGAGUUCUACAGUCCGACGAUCUACCAUGCCAUCUGUGCCAGUGUGUGUCUGCCUCACCCUGUGCUUGACAUGUUCACCCAUCUUCUCUGCUUCCCGCCACCAUCCAGAUCCUCAGCGGCCGCCCCGGCUGUUGGAAUUCUCGGGUGCCAA | 0.222 |
| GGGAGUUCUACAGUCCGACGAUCUAAGCUACUGAUUUGGAUUUGUUUUAUCGUAUCCUAAAGUCUUUGUUGUUGAAAUGAAAGGUAUUUUGGGGUUAUUUAUUAUGAAAACAACAUGCUCUUAAUGUUGAUUUUGGAAUUCUCGGGUGCCAA | 0.344 |
